Published values gathered from unrelated publications.
Compare with care: the assays were run in different laboratories. ± gives the spread as reported.
Cell line: HCT-15

Cc1ccc(C(C)C)cc1.Cc1ccc(C(C)C)cc1.Cc1ccc(C(C)C)cc1.Cc1ccc(C(C)C)cc1.O=S(=O)(O)C(F)(F)F.O=S(=O)(O)C(F)(F)F.O=S(=O)(O)C(F)(F)F.O=S(=O)(O)C(F)(F)F.c1ccc2c3c4ccccc4c(c2c1)-c1cn(nn1)-c1cc[n+](cc1)[Ru-]1[O]c2c4ccccc4c4c5c(c6ccccc6c(c25)=[O+]1)=[O+][Ru-]([O]4)[n+]1ccc(cc1)-n1cc(nn1)-c1c2ccccc2c(c2ccccc12)-c1cn(nn1)-c1cc[n+](cc1)[Ru-]1[O]c2c4ccccc4c4c5c(c6ccccc6c(c25)=[O+]1)=[O+][Ru-]([O]4)[n+]1ccc(cc1)-n1cc-3nn1 — IC50 (cell growth, MTT; 24 h, after 24 h preincubation in medium at 37 °C): 17.9 ± 0.74 µM
CC(=O)[O][Pt]([NH2])([NH2])([Cl])([Cl])[O]C(=O)CCCc1ccccc1 — IC50 (cell growth or viability, MTT; 72 h): 4.52 µM
O=[C]=[Mn-2]12(=[C]=O)(=[C]=O)[O]c3cc4c(cc3=[N+]1CCc1ccccc1)[O][Mn-2](=[C]=O)(=[C]=O)(=[C]=O)([N+]=4CCc1ccccc1)[n+]1ccc(cc1)C(=O)Nc1ccccc1NC(=O)c1cc[n+]2cc1 — IC50 (cell growth, MTT; 48 h, LED light photolysis 1 h): 1.97 ± 0.19 µM
c1ccc2c(-c3cn(-c4ccncc4)nn3)c3ccccc3c(-c3cn(-c4ccncc4)nn3)c2c1 — IC50 (cell growth or viability, MTT; 24 h): > 20 µM
CNC(=O)C1CCCN(C(=O)C2CC3CCC2N3C(=O)[C@@H]2C[C@@H](O)CN2C(=O)NCc2cccc(Cl)c2F)C1 (mixture of isomers) — IC50 (cell growth or viability, CCK-8; 72 h): 5.51 µM
Cc1ccc(C(C)C)cc1.Cc1ccc(C(C)C)cc1.Cc1ccc(C(C)C)cc1.Cc1ccc(C(C)C)cc1.O=S(=O)(O)C(F)(F)F.O=S(=O)(O)C(F)(F)F.O=S(=O)(O)C(F)(F)F.O=S(=O)(O)C(F)(F)F.c1ccc2c3c4ccccc4c(c2c1)-c1cn(nn1)-c1cc[n+](cc1)[Ru-]1[O]c2cc4c(cc2=[O+]1)[O][Ru-]([O+]=4)[n+]1ccc(cc1)-n1cc(nn1)-c1c2ccccc2c(c2ccccc12)-c1cn(nn1)-c1cc[n+](cc1)[Ru-]1[O]c2cc4c(cc2=[O+]1)[O][Ru-]([O+]=4)[n+]1ccc(cc1)-n1cc-3nn1 — IC50 (cell growth or viability, MTT; 24 h): > 20 µM
CCCC[N+]1=c2cc3c4cc2[O][Mn-2]1(=[C]=O)(=[C]=O)(=[C]=O)[n+]1ccc(cc1)C(=O)Oc1ccccc1OC(=O)c1cc[n+](cc1)[Mn-2](=[C]=O)(=[C]=O)(=[C]=O)([O]3)[N+]=4CCCC — IC50 (cell growth, MTT; 48 h, LED light photolysis 1 h): 7.88 ± 0.85 µM
COc1cc(S(=O)(=O)Oc2ccc3[nH]c(C)cc3c2F)cc(OC)c1OC — IC50 (cell growth or viability; 72 h): 0.00416 µM
CCCC[N+]1=c2cc3c4cc2[O][Mn-2]1(=[C]=O)(=[C]=O)(=[C]=O)[n+]1ccc(cc1)C(=O)NCCNC(=O)c1cc[n+](cc1)[Mn-2](=[C]=O)(=[C]=O)(=[C]=O)([O]3)[N+]=4CCCC — IC50 (cell growth, MTT; 48 h, LED light photolysis 1 h): 4.43 ± 0.62 µM
CCCC(CCC)C(=O)[O][Pt]([NH2])([NH2])([Cl])([Cl])[O]C(C)=O — IC50 (cell growth or viability, MTT; 72 h): 5.39 µM
CCCC[N+]1=c2cc3c4cc2[O][Mn-2]1(=[C]=O)(=[C]=O)(=[C]=O)[n+]1ccc(cc1)C(=O)Nc1ccccc1NC(=O)c1cc[n+](cc1)[Mn-2](=[C]=O)(=[C]=O)(=[C]=O)([O]3)[N+]=4CCCC — IC50 (cell growth, MTT; 48 h, LED light photolysis 1 h): 2.58 ± 0.57 µM
CC(C)c1ccc(N(C)c2ccc3c(c2)OCC[C@H]3CNc2cnccc2C(=O)O)cc1 — IC50 (cell growth or viability, ATP luminescence; 7 days): 0.00179 µM
